Assay results gathered from unrelated publications.
Protocols differ between the studies behind these lines. ± gives the spread as reported.
AHR: Aryl hydrocarbon receptor (AHR, Homo sapiens, UniProt P35869)
Sequence of UniProt P35869 (whole entry, looked up): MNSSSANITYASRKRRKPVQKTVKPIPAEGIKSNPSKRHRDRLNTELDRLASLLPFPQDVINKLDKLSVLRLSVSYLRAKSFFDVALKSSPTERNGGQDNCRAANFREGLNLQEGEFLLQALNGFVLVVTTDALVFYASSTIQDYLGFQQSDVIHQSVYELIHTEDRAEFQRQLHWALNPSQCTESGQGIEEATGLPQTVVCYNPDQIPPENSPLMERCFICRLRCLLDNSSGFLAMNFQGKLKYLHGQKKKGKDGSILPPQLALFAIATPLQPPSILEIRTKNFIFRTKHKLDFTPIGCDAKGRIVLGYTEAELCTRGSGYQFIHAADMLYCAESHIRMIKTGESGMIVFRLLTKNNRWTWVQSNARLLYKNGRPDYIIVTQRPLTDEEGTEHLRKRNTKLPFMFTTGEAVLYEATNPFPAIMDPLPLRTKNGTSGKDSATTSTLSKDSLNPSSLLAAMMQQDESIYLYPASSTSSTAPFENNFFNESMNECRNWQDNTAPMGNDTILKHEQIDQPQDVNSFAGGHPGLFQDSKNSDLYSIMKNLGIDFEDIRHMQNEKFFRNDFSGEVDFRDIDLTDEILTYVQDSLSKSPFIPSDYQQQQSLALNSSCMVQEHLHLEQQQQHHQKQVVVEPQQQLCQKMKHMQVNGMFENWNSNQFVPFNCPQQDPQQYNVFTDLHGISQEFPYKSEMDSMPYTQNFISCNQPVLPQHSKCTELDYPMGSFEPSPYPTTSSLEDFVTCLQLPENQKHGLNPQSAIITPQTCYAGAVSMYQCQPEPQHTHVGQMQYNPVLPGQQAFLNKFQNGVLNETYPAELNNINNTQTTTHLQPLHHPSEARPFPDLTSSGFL
Aryl hydrocarbon receptor: Aryl hydrocarbon receptor (Danio rerio, UniProt Q9YGV3)
HTR2A: 5-hydroxytryptamine receptor 2A (HTR2A, Homo sapiens, UniProt P28223)
Sequence of UniProt P28223 (whole entry, looked up): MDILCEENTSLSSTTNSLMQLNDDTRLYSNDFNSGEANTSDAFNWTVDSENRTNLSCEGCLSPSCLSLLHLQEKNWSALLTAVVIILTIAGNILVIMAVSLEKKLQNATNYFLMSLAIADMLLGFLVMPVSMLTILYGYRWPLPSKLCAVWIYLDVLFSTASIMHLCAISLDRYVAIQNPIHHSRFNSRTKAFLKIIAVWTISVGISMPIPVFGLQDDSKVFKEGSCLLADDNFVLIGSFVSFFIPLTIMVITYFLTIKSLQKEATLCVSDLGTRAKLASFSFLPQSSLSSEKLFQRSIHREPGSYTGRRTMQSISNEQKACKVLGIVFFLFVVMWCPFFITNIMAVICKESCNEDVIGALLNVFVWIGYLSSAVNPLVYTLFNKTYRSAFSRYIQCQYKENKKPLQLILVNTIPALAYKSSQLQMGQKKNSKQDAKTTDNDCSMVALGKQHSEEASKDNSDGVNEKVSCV
GABA-A receptor; alpha-5/beta-3/gamma-2: GABA-A receptor; alpha-5/beta-3/gamma-2 (Homo sapiens, UniProt P18507+P28472+P31644)
Sequence of UniProt P28472 (whole entry, unmodified, looked up): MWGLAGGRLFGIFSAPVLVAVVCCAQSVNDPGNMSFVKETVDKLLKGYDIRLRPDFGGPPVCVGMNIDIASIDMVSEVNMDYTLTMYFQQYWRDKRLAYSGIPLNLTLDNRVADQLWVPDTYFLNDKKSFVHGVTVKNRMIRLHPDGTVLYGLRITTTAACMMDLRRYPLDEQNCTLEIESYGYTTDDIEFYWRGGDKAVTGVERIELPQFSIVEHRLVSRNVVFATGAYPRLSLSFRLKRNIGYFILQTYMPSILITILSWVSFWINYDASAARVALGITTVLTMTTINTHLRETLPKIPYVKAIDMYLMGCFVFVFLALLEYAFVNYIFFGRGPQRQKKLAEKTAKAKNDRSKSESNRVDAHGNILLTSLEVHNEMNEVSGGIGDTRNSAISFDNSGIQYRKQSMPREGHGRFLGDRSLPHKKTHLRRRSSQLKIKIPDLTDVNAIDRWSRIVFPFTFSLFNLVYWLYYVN
Sequence of UniProt P18507 (whole entry, looked up): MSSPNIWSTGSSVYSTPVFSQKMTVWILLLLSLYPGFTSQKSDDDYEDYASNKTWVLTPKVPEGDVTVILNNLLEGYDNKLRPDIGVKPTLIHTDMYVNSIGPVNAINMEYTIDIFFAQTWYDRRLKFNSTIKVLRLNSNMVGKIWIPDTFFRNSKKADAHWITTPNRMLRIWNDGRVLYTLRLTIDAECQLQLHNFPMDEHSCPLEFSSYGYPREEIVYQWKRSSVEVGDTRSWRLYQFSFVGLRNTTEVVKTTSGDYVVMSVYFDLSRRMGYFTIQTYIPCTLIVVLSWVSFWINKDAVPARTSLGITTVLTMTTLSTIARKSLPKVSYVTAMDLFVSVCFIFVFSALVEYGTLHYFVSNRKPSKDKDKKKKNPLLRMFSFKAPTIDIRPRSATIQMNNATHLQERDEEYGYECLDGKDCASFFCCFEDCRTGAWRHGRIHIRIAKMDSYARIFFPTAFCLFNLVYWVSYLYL
Sequence of UniProt P31644 (whole entry, looked up): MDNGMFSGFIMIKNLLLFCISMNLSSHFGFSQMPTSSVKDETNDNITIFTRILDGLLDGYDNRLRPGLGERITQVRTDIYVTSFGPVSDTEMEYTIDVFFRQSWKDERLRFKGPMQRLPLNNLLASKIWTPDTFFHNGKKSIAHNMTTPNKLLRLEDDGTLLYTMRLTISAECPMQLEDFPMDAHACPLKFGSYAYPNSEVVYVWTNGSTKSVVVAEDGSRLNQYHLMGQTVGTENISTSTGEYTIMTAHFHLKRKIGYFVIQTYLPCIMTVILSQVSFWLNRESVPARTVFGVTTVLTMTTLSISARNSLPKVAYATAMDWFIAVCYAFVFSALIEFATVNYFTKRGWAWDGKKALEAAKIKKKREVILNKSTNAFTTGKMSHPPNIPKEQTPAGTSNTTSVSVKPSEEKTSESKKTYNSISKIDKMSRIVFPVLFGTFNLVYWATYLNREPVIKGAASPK
Sequence of UniProt Q9UGM1 (whole entry, looked up): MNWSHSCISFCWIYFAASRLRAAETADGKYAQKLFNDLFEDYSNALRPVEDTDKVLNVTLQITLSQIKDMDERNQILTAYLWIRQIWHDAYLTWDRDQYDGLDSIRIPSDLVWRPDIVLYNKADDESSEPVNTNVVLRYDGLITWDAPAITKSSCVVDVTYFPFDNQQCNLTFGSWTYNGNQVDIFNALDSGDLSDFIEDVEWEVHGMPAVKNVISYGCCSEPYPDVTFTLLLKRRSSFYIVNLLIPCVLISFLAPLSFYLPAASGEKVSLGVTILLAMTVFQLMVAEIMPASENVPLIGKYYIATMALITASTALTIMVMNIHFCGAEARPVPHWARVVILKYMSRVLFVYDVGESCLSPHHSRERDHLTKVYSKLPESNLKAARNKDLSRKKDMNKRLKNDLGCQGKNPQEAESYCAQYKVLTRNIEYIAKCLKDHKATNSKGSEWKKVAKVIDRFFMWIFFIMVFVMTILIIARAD
Sequence of UniProt P28867 (whole entry, looked up): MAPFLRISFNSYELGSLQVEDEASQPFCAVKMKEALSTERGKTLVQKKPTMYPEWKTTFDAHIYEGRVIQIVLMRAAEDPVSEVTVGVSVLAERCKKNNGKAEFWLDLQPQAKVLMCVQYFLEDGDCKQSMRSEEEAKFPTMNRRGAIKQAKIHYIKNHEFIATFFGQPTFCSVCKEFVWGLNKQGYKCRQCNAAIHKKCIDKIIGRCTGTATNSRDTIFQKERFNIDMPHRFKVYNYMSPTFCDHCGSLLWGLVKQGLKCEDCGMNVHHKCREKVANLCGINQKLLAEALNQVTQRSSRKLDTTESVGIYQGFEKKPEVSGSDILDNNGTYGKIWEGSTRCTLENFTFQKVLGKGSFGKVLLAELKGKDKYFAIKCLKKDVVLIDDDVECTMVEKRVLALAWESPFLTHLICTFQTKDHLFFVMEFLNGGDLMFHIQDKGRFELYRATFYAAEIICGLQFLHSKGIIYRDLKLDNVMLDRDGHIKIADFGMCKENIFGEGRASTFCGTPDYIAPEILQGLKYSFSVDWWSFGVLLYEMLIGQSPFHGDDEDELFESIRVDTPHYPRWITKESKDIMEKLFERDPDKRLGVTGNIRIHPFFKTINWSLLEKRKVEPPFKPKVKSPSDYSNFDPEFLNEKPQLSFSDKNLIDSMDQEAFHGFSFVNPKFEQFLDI
Sequence of UniProt P31645 (whole entry, looked up): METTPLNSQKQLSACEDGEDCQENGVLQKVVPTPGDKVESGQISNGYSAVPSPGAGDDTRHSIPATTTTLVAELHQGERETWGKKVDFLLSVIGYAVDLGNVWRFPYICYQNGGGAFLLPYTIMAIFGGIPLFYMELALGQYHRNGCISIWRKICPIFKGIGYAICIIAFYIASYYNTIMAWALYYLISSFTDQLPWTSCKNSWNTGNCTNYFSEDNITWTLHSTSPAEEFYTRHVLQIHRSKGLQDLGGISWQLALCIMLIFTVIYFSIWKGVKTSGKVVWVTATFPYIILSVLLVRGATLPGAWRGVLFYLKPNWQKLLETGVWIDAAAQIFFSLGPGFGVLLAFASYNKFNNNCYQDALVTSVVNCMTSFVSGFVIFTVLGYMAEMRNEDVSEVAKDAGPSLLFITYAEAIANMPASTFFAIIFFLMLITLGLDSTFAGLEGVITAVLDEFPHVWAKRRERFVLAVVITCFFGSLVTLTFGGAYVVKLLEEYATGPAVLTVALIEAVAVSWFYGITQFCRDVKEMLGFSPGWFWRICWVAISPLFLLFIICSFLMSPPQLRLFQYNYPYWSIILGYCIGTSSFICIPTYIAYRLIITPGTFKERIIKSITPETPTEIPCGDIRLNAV
Sequence of UniProt P41143 (whole entry, looked up): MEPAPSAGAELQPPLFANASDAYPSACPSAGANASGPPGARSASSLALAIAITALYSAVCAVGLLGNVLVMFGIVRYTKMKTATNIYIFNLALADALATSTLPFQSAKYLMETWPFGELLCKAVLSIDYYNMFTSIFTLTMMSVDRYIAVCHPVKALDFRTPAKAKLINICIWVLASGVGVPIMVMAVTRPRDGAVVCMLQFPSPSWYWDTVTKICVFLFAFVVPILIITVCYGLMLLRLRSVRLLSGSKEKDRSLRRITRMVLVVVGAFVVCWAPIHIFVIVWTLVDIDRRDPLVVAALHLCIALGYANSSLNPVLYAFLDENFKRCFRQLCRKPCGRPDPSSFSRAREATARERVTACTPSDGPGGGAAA

| SMILES | target | assay | test system | setting | how to read | EC50 |
| --- | --- | --- | --- | --- | --- | --- |
| CC[C@H](C)[C@H](NC(=O)[C@H](CO)NC(=O)[C@H](C)NC(=O)[C@H](Cc1ccc(OP(=O)(O)O)cc1)NC(=O)[C@H](CCC(=O)O)NC(=O)[C@@H](NC(=O)[C@H](Cc1c[nH]cn1)NC(=O)[C@H](CC(N)=O)NC(=O)[C@H](CC(N)=O)NC(=O)[C@@H]1CCCN1C(=O)[C@H](CCC(=O)O)NC(=O)[C@H](C)NC(=O)[C@H](C)NC(=O)[C@H](CCC(N)=O)NC(=O)[C@@H]1CCCN1C(=O)[C@H](C)NC(=O)[C@@H]1CCCN1C(=O)[C@H](CCCCN)NC(=O)[C@H](CCCCN)NC(=O)CNC(=O)[C@H](CCCCN)NC(=O)[C@@H]1CCCN1C(=O)[C@H](CC(C)C)NC(=O)[C@H](CC(N)=O)NC(=O)[C@H](CC(C)C)NC(=O)[C@H](CC(=O)O)NC(=O)[C@H](C)NC(=O)[C@H](Cc1ccc(OP(=O)(O)O)cc1)NC(=O)[C@@H](NC(=O)[C@@H](NC(=O)[C@@H](N)CC(=O)O)[C@@H](C)CC)[C@@H](C)O)[C@@H](C)O)C(=O)N[C@@H](CCC(N)=O)C(=O)N[C@H](C(=O)N[C@@H](CO)C(=O)O)[C@@H](C)O | Tyrosine-protein phosphatase non-receptor type 11 (PTPN11, Homo sapiens, UniProt Q06124) | enzyme activity, activator |  | pH 7.0, 0.2% DMSO, together with: DiFMUP 100 µM, phosphopeptide |  | 0.076 ± 0.001 µM |
| Clc1cc2c(cc1Cl)Oc1cc(Cl)c(Cl)cc1O2 | Uncharacterized protein (Takifugu rubripes, UniProt Q4JHL3) | reporter gene, agonist, dual-luciferase | COS-7 | 24 h |  | 0.00262 ± 0.00248 µM |
| Cc1cccc2c1ccc1ccccc12 | AHR | reporter gene, agonist, yeast LacZ reporter | Saccharomyces cerevisiae | 18 h, 30 °C | baseline: 50% of 100 µM phenanthrene activity | 3.98 µM |
| CCCC(=O)CC(=O)N[C@H]1CCOC1=O | expR (Pectobacterium carotovorum, UniProt Q4KS34) |  |  |  |  | 3 µM |
| Cc1cn([C@H]2C[C@H](O)[C@@H](COP(=O)(O)OP(=O)(O)OP(=O)(O)O)O2)c(=O)[nH]c1=O | dgt (Salmonella enterica, UniProt A0A5H6DAK1) |  |  |  |  | 27.6 µM |
| CSCC[C@H](NC(=O)[C@H](CCCNC(=N)N)NC(=O)[C@H](Cc1ccccc1)NC(=O)[C@H](C)NC(=O)[C@H](CC(N)=O)NC(=O)[C@@H]1CCCN1C(=O)[C@H](CC(=O)O)NC(=O)[C@@H](N)CCSC)C(=O)N[C@@H](CO)C(=O)N[C@@H](Cc1ccccc1)C(N)=O | Galanin-like G-protein coupled receptor npr-9 (npr-9, Caenorhabditis elegans, UniProt Q23497) | calcium mobilization, agonist, aequorin luminescence | CHO cells |  |  | 0.618 µM |
| N[C@H](C(=O)O)c1cc(=O)[nH]o1 | uncharacterized protein (Ixodes scapularis, UniProt A0A0N9E2I2) | ion current, agonist, two-electrode voltage clamp | Xenopus oocytes | holding potential -80 mV | baseline: 1 mM L-glutamate response | 10.8 µM |
| C[C@@H]1[C@@H](c2ccc(Cl)cc2)SC(=O)N1C(=O)NC1CCCCC1 | AHR | agonist |  |  |  | > 100 µM |
| C[C@H](c1ccccc1)n1cncc1C(=O)OCCC(=O)O | GABA-A receptor alpha-1/beta-3, with gamma-2 subunit (GABRA1/GABRB3, Homo sapiens, UniProt P14867+P28472, L291T) | direct receptor activation, agonist, two-electrode voltage clamp | Xenopus oocytes |  | baseline: 100 µM GABA current | 8300 µM |
| CCCCCCCCCCC[C@@H](C[C@@H]1OC(=O)[C@H]1CCCCCC)OC(=O)[C@H](CC(C)C)NC=O | Gag polyprotein, nucleocapsid protein p7 (gag, Human immunodeficiency virus type 1 group M subtype B, UniProt P04591) | NCp7-RNA binding enhancement, AlphaScreen |  | together with: U3 RNA | baseline: DMSO | 25.7 µM |
| c1ccc2c3c(ccc2c1)-c1cccc2cccc-3c12 | Aryl hydrocarbon receptor | agonist | ZF4 reporter cells | 22 to 24 h |  | 0.0274 µM |
| Cc1cc(C)nc(Nc2ccccc2)n1 | AHR | agonist |  |  |  | 4.6 µM |
| CCCC(NCCc1cc(OC)c(C#N)cc1OC)c1ccccc1O (stereo not shown) | HTR2A | agonist |  |  |  | 0.35 µM |
| C=C1C[C@@H]2C[C@@H]3CC(=C)C[C@H](/C=C/C(C)(C)[C@]4(O)O[C@@H](C/C(=C\C(=O)OC)[C@@H]4OC(=O)/C=C/C=C/CCC)C[C@H]([C@@H](C)O)OC(=O)C[C@H](O)C[C@H](C1)O2)O3 | Protein kinase C delta type (Prkcd, Mus musculus, UniProt P28867) |  | mouse cells |  |  | 0.101 ± 0.034 µM |
| CC(C)C[C@H](NC(=O)[C@H](Cc1ccccc1)NC(=O)[C@H](Cc1ccc(O)cc1)NC(=O)CNC(=O)[C@H](CCCCN)NC(=O)[C@H](CO)NC(=O)[C@H](CCC(N)=O)NC(=O)CNC(=O)[C@@H](NC(=O)[C@H](CO)NC(=O)[C@@H]1CCCN1C(=O)[C@H](CO)NC(=O)[C@H](CCC(N)=O)NC(=O)[C@H](Cc1ccc(O)cc1)NC(=O)[C@H](CCC(=O)O)NC(=O)[C@H](C)NC(=O)[C@H](CCCCN)NC(=O)[C@@H](N)Cc1ccccc1)C(C)C)C(=O)N[C@@H](Cc1ccccc1)C(=O)N[C@@H](CCCNC(=N)N)C(=O)N1CCC[C@H]1C(=O)N[C@@H](CCCNC(=N)N)C(=O)N[C@@H](CC(N)=O)C(N)=O | Neuromedin-U receptor 2 (NMUR2, Homo sapiens, UniProt Q9GZQ4) | beta-arrestin recruitment, agonist, PathHunter luminescence | CHO-K1 | 90 min, 37 °C |  | 0.0011 µM |
| CNC(C)Cc1ccc2n[se]nc2c1 (stereo not shown) | Sodium-dependent serotonin transporter (SLC6A4, Homo sapiens, UniProt P31645) | transporter current, whole-cell patch clamp | HEK293 | holding -60 mV |  | 0.77 µM |
| C[N+](C)(C)CCOC(N)=O | Neuronal acetylcholine receptor; alpha9/alpha10 (Homo sapiens, UniProt Q9GZZ6+Q9UGM1) |  |  |  |  | 6.67 µM |
| Cc1ccc2ccc3ccccc3c2c1 | AHR | reporter gene, agonist, yeast LacZ reporter | Saccharomyces cerevisiae | 18 h |  | 19.2 µM |
| NCc1cc(=O)[nH]o1 | GABA-A receptor; alpha-5/beta-3/gamma-2 | chloride current, agonist, electrophysiology | HEK293 expressing GABAA α5β3γ2 |  |  | 1 µM |
| Cc1cc2ccccc2c2ccccc12 | AHR | reporter gene, agonist, yeast LacZ reporter | Saccharomyces cerevisiae | 18 h |  | 15.8 µM |
| c1ccc2c(c1)-c1cccc3c1c-2cc1ccccc13 | Aryl hydrocarbon receptor | agonist | ZF4 reporter cells | 22 to 24 h |  | 0.0149 µM |
| C[C@@H](Cc1ccsc1)NC(=O)NC[C@H](Cc1ccc(O)cc1)N(C)C | Delta-type opioid receptor (OPRD1, Homo sapiens, UniProt P41143) |  |  |  |  | 0.108 ± 0.0403 µM |
| C=CCCCn1c(O)c(N=NC(=O)c2ccccc2)c2ccccc21 | Cannabinoid receptor 1 (CNR1, Homo sapiens, UniProt P21554) | agonist |  |  |  | 0.102 µM |
| Oc1noc2c1CCNC2 | GABA-A receptor; alpha-5/beta-3/gamma-2 | chloride current, agonist, electrophysiology | HEK293 expressing GABAA α5β3γ2 |  |  | 11 µM |
| O=C(O)c1ccccc1Nc1cccc(C(F)(F)F)c1 | BK channel alpha subunit (Cavia porcellus, UniProt A0A286XP95) | delayed rectifier K+ current, activator | dispersed vascular smooth muscle cells, guinea pig, MA arteriole | at +40 mV |  | 293 µM |
| COc1cc(CCNC2CCCc3cccc(O)c32)c(OC)cc1C#N (stereo not shown) | HTR2A | agonist |  |  |  | 0.15 µM |
| Cc1cccc2ccc3ccccc3c12 | AHR | reporter gene, agonist, yeast LacZ reporter | Saccharomyces cerevisiae | 18 h |  | 29.8 µM |
| COc1cc(C(=O)N2CC[C@@H](O)[C@@H](N)C2)cc2nc(-c3cc4ccccc4n3CC3CC3)n(C)c12 | HTR2A | intracellular calcium, agonist, luminescence |  |  |  | > 39.8 µM |
